Results pooled from the literature.
Compare with care: the assays were run in different laboratories.
Cell line: 786-0

| Compound | read-out | method | concentration | time | setting | endpoint | value |
| --- | --- | --- | --- | --- | --- | --- | --- |
| CCCN1CCN(c2ccc3nc(-c4ccc5nc(-c6cc(OC)ccc6OC)[nH]c5c4)[nH]c3c2)CC1 | cell growth | NCI-60 SRB | 10 µM | 48 h |  | growth percent | 101% |
| NNc1nc(-c2ccc(Cl)cc2)c2c(NC(=O)c3ccccc3)nnc-2[nH]1 |  | NCI60 SRB | 10 µM |  |  | growth percent | 98.5% |
| C#C[C@@]1(O)[C@@H](CO)O[C@@H](n2cc(I)c3c(N)ncnc32)[C@@H]1O | cell growth | SRB |  |  |  | TGI | 3.24 µM |
| CCN(CC)c1ccc(C=NNC(=O)CSc2nc3ccccc3c(=O)n2Cc2ccc(S(N)(=O)=O)cc2)c(O)c1 | cell growth |  |  |  | NCI five-dose screen | TGI | > 100 µM |
| O=C(Nc1nnc2n3c(nc(-c4ccc(Cl)cc4)c1-2)SCC3=O)c1ccccc1 |  | NCI60 SRB | 10 µM |  |  | growth percent | 98.4% |
| C#C[C@@]1(O)[C@@H](CO)O[C@@H](n2cc(F)c3c(N)ncnc32)[C@@H]1O | cell growth | SRB |  |  |  | TGI | 2.84 µM |
| CCCCN1CCN(c2ccc3[nH]c(-c4ccc5[nH]c(-c6ccc(OCC)c(OCC)c6)nc5c4)nc3c2)CC1 | cell growth | NCI-60 SRB | 10 µM | 48 h |  | growth percent | -87.4% |
| Cn1cncc1C1=CN(c2ncnc3[nH]cnc23)CCS1 |  |  |  |  | renal cancer cell line | TGI | 40.7 µM |
| COc1ccc(OC)c(-c2nc3ccc(-c4nc5ccc(N6CCN(C)CC6)cc5[nH]4)cc3[nH]2)c1 | cell growth | NCI-60 SRB | 10 µM | 48 h |  | growth percent | 84.5% |
| Cc1cc(C)n(-c2nc(-c3ccc(Cl)cc3)c3c(NC(=O)c4ccccc4)nnc-3[nH]2)n1 |  | NCI60 SRB | 10 µM |  |  | growth percent | 96.2% |

For quick reference, copied from above:
| Compound | read-out | method | concentration | time | setting | endpoint | value |
| --- | --- | --- | --- | --- | --- | --- | --- |
| COc1ccc(OC)c(-c2nc3ccc(-c4nc5ccc(N6CCN(C)CC6)cc5[nH]4)cc3[nH]2)c1 | cell growth | NCI-60 SRB | 10 µM | 48 h |  | growth percent | 84.5% |
